# Measurements gathered from unrelated publications.
# Numbered parts are unrelated; each lists some results of a single study. Substitutions count along the parent as printed.

# Set 1
# Target: CCNF, cyclin fold, Cln2 fusion (human)
# Technique: yeast growth competition, sequencing
# Medium: yeast
# Setting: strong parent motif
# Relative to: not given
# Reading: higher = stronger binding
# Starting sequence: CDC25A docking peptide (human); PPHRRRLLFACSP
Change,normalised enrichment score
PLHRRRLLFACSP [P2L],6.13
PPHRRRLWFACSP [L8W],6.41
PPHRRFLLFACSP [R6F],2.54
PPHRRRLLFARSP [C11R],6.69
PPHRRRLLMACSP [F9M],3.97
PPHRRRLLFACDP [S12D],7.63
PPHRRRLLHACSP [F9H],1.43
PPHRRRQLFACSP [L7Q],0.887
PKHRRRLLFACSP [P2K],7.13
PPHRRRCLFACSP [L7C],2.25
PYHRRRLLFACSP [P2Y],6.35
PPHRRLLLFACSP [R6L],4.38
PPHRRRVLFACSP [L7V],1.62
PPHRRRLLFACCP [S12C],7.33
PPHRDRLLFACSP [R5D],0.592
PPHRRRFLFACSP [L7F],2.16
GPHRRRLLFACSP [P1G],6.06
PPHRRRKLFACSP [L7K],1.94
PPHRRRLLIACSP [F9I],2.46
PPHRRALLFACSP [R6A],4.95
PPHRRRLLYACSP [F9Y],4.42
PPHRRWLLFACSP [R6W],3.27
PPHRRRLLFAFSP [C11F],8.34
PPHRERLLFACSP [R5E],0.409
PDHRRRLLFACSP [P2D],4.87

# Set 2
# Target: RNA binding protein fox-1 homolog 2, RRM domain, GST-SBP tag (RBFOX2, Homo sapiens, UniProt O43251-10, residues 100-194)
# Technique: RNA Bind-n-Seq
# Form: RNA
# Medium: in vitro
# Tested at: 365 nM
# Setting: natural RNA segment, single round, ends assumed
# Relative to: no-protein control
# Reading: higher = stronger binding
# Residues (chain): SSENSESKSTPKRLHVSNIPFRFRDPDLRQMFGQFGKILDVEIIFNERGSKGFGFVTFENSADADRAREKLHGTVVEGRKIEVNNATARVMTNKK
Strand,RBNS enrichment (R)
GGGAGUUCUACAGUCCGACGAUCCAGUGCCACGAGUUGAAAGCUUCCAUACUGAACACUAUCCUUUCACUAUAUAAGUAAAGCAAAUAUAUUAGGCCAGGAUCUCACUGAGGAAUUUGUCUUGUCAUCUUUUAUGGAAUUCUCGGGUGCCAA,0.637
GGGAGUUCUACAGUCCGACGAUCUGGGAGGCAAGGGAAUAGGAAAGCCAAAGGCCAAGCAGGAACUCUGUGCCUGCUCUCUGCUCCUGUUCUUUCCCUCCCAUACCUGGCUGCUGUGAGGACACUCACCUUGUUGGAAUUCUCGGGUGCCAA,0.171
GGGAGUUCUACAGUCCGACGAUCGAUAUUGCCCAUGAUUCUCACUUUUUCUUUGCCUGGCAUCUAAGCAGGAACCCAUUGUGGAGUAGACUCUCUUCUUCUAUGGAGCCUCUGACAUGGGGAGCAAUGCUAAGUGGAAUUCUCGGGUGCCAA,0.866
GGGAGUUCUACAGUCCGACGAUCGUCUUUCCCAUGGGGAGGGAUUCUGGUUCCAGGGUCCCUCUGUGUAUUUGCUUUUUUGUUUUGGCUGAAAUUCUCCUGGAGGUCGGUAGGUUCAGCCAAGGUUUUAUAAGUGGAAUUCUCGGGUGCCAA,0.751
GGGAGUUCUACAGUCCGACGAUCCCACUGACUGAGCUGUCCUGCAAACCAGUCAAUACCUUAUGGUUAUGUCUGAAGGUUUUAAAUAGUGGUUGACCCAACACCUUGGACUGAAAUUUUGAAAAGUUUUGAAAUGGAAUUCUCGGGUGCCAA,0.367
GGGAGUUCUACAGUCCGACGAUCUCGUGCACUUUGAAUACCAAUCAGGUGUUUUCUGUGCUACUAGUUGUCACGUUGCAUUCAUGUUCACCUCCUGAUUUAAGUAUCUCGGGUGUGCCCAGCCACUAAAGCACUGGAAUUCUCGGGUGCCAA,0.223
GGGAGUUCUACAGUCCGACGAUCAGAAAGUCCAACAGUGACACUCCCCCUGCUCCAAGGUGGGGACUUAAGUUUGUGAGGUACAAGAAUAUGUUUUCAUGAAAGUAACAUUGUUUAUCUAGCAAACGUGACAAUGGAAUUCUCGGGUGCCAA,0.307
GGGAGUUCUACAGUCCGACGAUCGUGGGCAGGGGCUGCAUUUUAUGAAACUGCCCAGCAAGCUGCGCUCCCUGGGGCCCCAGGAUCCACCUAACUGGCCUGGCACCUGGUGCCACGUGCUGCUGCCGCCAGGAUGGAAUUCUCGGGUGCCAA,1.17

# Set 3
# Target: ABI1, truncated, D143A, DHFR fusion (Arabidopsis thaliana)
# Technique: DHFR PCA, deep sequencing
# Medium: yeast
# Setting: methotrexate growth selection, single substitutions
# With: (+)-ABA 0.39 µM
# Relative to: wild-type fitted maximum
# Reading: higher = stronger binding
# Starting sequence: PYL1, truncated, DHFR fusion (Arabidopsis thaliana); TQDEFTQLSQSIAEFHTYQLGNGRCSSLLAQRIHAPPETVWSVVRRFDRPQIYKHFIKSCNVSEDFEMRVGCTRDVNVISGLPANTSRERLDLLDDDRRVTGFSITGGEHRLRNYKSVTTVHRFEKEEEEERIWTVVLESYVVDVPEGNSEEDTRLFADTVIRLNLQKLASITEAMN
Change,relative binding score
V136K,-14.2%
G21F,0.369%
A170I,-13.1%
H16I,-9.87%
D65Y,3.48%
G21T,47.2%
Q31W,1.76%
C60F,10%
I33F,-3.44%
K168M,11.4%
T73K,8.35%
S80C,16%
I133P,70.4%
G108D,-6.25%
Q10D,65.2%
N22S,52.1%
R32Q,31.8%
R46A,34.2%

# Set 4
# Target: Histone acetyltransferase KAT6A, winged helix 1, GST fusion (KAT6A, Homo sapiens, UniProt Q92794, residues 1-85)
# Technique: protein binding microarray
# Form: double-stranded DNA, one strand shown
# Medium: in vitro
# Tested at: not given
# Setting: 8-mer, flanks averaged, mean of 2 arrays, mostly near background
# Relative to: not given
# Reading: higher = stronger binding
# Residues (chain): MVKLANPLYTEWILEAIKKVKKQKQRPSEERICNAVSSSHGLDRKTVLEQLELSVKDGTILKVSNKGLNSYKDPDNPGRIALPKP
Strand,E-score
CAAAATTC,-0.0958
ATGTTCTG,-0.113
AGCTTCGG,-0.101
ACACGCTG,-0.0193
CCCCGAGC,0.0671
AGTCTTTC,-0.136
ACCATAAA,-0.0529
ACAACCCA,-0.143
AAAGGACT,-0.181
CATTGCCA,-0.22
CGGGACAA,0.263
CTCATGCC,-0.0416
CGACCCCC,0.157
GTATTAAA,0.038
CGTGTCCC,0.18
GGCGGCGA,0.422
CTAAAGAC,0.0125
CCGAATCC,0.121
AACGTTGG,-0.0215
AACTAAAG,-0.122
AGCCTCCG,0.0263
CCATCAGA,-0.106
ACTAGTAT,-0.162
GACTATGC,-0.0721
ACGTTCGC,0.0542

# Repeated from above (set 1):
Change,normalised enrichment score
PPHRRWLLFACSP [R6W],3.27
PPHRRRFLFACSP [L7F],2.16
PPHRRALLFACSP [R6A],4.95
PPHRRRQLFACSP [L7Q],0.887
PPHRRRLLFAFSP [C11F],8.34
